# Experimental data collected from several papers.
# Protocols differ between the studies behind these lines.
# 4'-phosphopantetheinyl transferase PptT: 4'-phosphopantetheinyl transferase PptT (Mycobacterium tuberculosis, UniProt O33336)
# Sequence of UniProt O33336 (whole entry, looked up): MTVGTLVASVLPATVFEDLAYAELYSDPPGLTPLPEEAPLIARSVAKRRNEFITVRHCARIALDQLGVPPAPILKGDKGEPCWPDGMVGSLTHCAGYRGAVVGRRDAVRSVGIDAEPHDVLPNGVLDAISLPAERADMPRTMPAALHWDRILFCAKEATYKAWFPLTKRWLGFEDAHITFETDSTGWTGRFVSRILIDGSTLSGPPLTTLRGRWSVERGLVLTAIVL
# Sequence of UniProt P34972 (whole entry, looked up): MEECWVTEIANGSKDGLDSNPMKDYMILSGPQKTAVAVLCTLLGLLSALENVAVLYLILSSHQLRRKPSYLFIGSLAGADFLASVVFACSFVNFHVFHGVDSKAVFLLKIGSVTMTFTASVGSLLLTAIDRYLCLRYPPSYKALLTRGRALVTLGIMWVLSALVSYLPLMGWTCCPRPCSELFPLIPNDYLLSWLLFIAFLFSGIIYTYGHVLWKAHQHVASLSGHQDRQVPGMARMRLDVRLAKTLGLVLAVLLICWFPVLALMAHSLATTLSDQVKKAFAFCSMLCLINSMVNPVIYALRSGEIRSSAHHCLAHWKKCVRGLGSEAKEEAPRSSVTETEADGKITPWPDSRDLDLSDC
# Sequence of UniProt P20309 (whole entry, looked up): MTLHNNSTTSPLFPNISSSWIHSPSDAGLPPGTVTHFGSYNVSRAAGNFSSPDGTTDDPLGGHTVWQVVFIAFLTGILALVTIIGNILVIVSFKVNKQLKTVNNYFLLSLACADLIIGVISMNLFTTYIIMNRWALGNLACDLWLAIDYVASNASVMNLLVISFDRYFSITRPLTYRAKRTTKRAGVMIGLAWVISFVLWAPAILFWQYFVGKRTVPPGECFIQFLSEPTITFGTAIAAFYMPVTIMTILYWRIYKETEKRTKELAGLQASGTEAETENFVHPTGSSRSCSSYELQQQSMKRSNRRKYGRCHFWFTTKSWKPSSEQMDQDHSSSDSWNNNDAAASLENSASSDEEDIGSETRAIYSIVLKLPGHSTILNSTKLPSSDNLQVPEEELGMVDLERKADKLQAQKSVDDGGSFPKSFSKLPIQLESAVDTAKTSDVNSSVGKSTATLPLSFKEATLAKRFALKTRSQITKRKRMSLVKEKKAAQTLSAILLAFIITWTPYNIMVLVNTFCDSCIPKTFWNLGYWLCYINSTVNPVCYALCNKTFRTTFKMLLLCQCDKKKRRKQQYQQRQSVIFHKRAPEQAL
# Sequence of UniProt P08913 (whole entry, looked up): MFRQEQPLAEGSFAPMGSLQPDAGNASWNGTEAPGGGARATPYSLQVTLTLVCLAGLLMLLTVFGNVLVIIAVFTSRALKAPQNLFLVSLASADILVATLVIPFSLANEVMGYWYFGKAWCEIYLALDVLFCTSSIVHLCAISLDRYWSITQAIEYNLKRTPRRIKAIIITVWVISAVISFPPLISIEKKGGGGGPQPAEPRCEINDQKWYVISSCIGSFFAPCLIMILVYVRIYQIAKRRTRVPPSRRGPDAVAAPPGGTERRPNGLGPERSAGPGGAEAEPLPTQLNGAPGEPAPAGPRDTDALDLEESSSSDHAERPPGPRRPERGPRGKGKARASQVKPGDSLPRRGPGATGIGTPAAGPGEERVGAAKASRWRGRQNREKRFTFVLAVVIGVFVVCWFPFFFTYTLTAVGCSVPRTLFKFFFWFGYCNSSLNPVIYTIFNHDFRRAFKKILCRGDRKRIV
# Sequence of UniProt P27361 (whole entry, looked up): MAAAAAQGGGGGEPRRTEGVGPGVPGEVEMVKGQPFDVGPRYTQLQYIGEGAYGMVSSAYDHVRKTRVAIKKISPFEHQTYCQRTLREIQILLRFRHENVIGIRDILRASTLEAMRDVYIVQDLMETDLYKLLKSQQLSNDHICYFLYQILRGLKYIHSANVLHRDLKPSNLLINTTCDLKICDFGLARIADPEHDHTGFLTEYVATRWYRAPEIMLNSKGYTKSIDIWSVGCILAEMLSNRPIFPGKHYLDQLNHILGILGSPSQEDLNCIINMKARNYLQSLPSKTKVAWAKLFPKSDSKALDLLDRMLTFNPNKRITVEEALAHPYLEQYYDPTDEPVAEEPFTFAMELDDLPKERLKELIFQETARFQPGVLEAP
# Sequence of UniProt Q86U86 (whole entry, unmodified, looked up): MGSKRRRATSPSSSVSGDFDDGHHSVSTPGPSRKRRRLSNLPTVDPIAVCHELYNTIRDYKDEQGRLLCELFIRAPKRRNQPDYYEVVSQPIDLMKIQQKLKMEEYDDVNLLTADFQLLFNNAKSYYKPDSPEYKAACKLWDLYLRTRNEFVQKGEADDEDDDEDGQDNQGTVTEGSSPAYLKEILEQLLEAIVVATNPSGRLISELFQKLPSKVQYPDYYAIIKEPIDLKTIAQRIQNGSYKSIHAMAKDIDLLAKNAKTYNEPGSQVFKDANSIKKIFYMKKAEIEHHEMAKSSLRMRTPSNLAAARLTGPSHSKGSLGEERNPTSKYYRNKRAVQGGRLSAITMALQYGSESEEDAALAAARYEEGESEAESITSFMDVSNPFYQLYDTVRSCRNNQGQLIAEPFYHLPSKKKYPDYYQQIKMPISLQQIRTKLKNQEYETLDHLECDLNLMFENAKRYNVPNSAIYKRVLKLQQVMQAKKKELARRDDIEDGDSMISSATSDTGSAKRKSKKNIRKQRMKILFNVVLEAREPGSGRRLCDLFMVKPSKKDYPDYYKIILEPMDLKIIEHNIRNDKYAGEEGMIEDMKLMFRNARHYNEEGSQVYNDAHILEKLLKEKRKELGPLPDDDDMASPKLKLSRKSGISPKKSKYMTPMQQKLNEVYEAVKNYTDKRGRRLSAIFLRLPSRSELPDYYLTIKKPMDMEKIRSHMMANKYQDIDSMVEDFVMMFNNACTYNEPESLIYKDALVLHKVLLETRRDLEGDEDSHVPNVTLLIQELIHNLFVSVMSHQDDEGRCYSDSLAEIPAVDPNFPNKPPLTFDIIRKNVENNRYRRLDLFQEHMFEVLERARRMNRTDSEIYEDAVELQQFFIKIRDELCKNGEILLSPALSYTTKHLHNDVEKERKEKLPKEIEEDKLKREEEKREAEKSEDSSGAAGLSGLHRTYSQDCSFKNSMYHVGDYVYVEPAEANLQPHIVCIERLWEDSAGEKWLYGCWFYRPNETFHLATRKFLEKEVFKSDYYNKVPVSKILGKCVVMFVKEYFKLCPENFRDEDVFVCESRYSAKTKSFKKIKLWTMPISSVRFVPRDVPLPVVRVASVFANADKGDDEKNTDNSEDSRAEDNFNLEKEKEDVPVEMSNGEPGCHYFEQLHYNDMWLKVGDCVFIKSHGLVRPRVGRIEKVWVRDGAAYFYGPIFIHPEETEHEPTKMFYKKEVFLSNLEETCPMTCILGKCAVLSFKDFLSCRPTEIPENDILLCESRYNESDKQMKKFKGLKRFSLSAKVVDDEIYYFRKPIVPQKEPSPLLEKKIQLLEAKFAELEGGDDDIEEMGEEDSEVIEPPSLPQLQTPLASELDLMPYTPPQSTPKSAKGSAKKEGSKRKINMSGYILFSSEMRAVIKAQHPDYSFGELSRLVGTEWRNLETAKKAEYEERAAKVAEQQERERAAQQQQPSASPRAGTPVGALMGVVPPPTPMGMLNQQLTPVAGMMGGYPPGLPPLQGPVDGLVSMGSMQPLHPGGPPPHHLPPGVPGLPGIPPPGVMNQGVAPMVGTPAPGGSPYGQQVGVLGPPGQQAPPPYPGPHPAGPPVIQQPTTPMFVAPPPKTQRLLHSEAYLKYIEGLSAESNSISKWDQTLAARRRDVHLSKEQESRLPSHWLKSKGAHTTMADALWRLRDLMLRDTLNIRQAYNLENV
# Sequence of UniProt O75914 (whole entry, looked up): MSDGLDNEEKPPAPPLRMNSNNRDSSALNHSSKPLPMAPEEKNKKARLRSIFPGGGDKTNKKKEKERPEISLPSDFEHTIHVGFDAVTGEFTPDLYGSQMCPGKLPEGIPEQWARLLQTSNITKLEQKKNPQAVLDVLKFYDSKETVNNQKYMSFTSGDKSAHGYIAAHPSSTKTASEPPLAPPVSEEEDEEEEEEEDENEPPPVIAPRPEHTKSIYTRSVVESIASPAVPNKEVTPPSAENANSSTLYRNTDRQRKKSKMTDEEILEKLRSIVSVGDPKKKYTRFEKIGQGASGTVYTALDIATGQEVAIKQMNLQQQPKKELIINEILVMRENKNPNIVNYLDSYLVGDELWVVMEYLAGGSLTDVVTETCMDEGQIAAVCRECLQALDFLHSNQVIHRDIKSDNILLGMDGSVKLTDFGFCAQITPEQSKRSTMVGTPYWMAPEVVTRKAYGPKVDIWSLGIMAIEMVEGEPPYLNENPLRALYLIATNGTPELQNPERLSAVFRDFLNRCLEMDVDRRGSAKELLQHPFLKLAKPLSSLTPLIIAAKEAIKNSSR
Structure (SMILES),target,test,setting,quantity,value
Cc1ccc2[nH]c(=S)n(Cc3cccnc3)c(=O)c2c1,4'-phosphopantetheinyl transferase PptT,"enzyme activity, inhibitor, FP",,IC50,830 nM
CC(C)CC(=O)OC[C@H]1O[C@@](C#N)(c2ccc3c(N)ncnn23)[C@H](O)[C@@H]1O,"Muscarinic acetylcholine receptor M3 (CHRM3, Homo sapiens, UniProt P20309)",cell-free assay,20 µM,inhibition,10%
Cc1nn(C)cc1-c1nc2c(N3CCN(Cc4ccc(Cl)cc4)CC3)c(Cl)cnc2[nH]1,"Receptor-type tyrosine-protein kinase FLT3 (FLT3, Homo sapiens, UniProt P36888, D835Y)","binding, competition with immobilised ligand",1 µM,remaining binding,5.6%
CCCCC/C=C\C/C=C\C/C=C\Cc1ccccc1CCCC(=O)N[C@H](C)CO,"Cannabinoid receptor 2 (CNR2, Homo sapiens, UniProt P34972)","β-arrestin recruitment, agonist",,Emax,100%
Nc1ncc(-c2nc(N3CCOCC3)nc(N3CCOCC3)n2)c(C(F)F)n1,"BMP-2-inducible protein kinase (BMP2K, Homo sapiens, UniProt Q9NSY1)","binding, competition with immobilised ligand",10 µM,remaining binding,91%
[2H]c1c([2H])c([C@]2([2H])CCCN2C(=O)C(C)(C)Oc2ccc3cn[nH]c3c2)c([2H])c([2H])c1C([2H])([2H])[2H],"Mitogen-activated protein kinase 3 (MAPK3, Homo sapiens, UniProt P27361)","binding, competition with immobilised ligand",1 µM,remaining binding,75%
c1cncc([C@@H]2CCCN2)c1,"Alpha-2A adrenergic receptor (ADRA2A, Homo sapiens, UniProt P08913)",ligand displacement,50 µM,inhibition,4.8%
CCN(CC)CCCC[C@H](NC(=O)[C@H](CC(C)C)NC(=O)[C@H](C)NC(=O)[C@H](Cc1ccccc1)NC(=O)c1ccc(C(C)(C)C)cc1)C(=O)N[C@@H](CO)C(=O)OC,"Protein polybromo-1, BD2 (PBRM1, Homo sapiens, UniProt Q86U86)","thermal stability, DSF",25 µM,ΔTm,0.24 °C
COc1ncccc1-c1cnn2ccc(N3CCN(C(=O)OC(C)C)CC3)nc12,"Serine/threonine-protein kinase PAK 3 (PAK3, Homo sapiens, UniProt O75914)","binding, competition with immobilised ligand",1 µM,remaining binding,100%
CC(C)c1ccc2[nH]c(=S)n(Cc3cccnc3)c(=O)c2c1,4'-phosphopantetheinyl transferase PptT,"enzyme activity, inhibitor, FP",,IC50,2100 nM

# A few entries again:
Structure (SMILES),target,test,setting,quantity,value
COc1ncccc1-c1cnn2ccc(N3CCN(C(=O)OC(C)C)CC3)nc12,"Serine/threonine-protein kinase PAK 3 (PAK3, Homo sapiens, UniProt O75914)","binding, competition with immobilised ligand",1 µM,remaining binding,100%
